Measured values of several laboratories.
Every numbered part comes from another study and shows a few of its results, in no order.

Block 1
Target: Histone acetyltransferase KAT6A, both winged helices, GST fusion (KAT6A, Homo sapiens, UniProt Q92794, residues 1-181)
Method: protein binding microarray
Molecule type: double-stranded DNA, one strand shown
Matrix: in vitro
Concentration: not given
Notes: 8-mer, flanks averaged, mean of 2 arrays, mostly near background
Relative to: not given
Direction: higher = stronger binding
Construct (chain): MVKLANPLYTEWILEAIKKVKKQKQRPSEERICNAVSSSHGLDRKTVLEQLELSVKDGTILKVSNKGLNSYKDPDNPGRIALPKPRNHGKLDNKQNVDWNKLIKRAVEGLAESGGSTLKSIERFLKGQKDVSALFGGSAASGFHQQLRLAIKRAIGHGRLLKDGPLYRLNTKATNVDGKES
Oligonucleotide | E-score
CACTTTAA | -0.11
CGTCTACA | 0.0799
TCAGTCGA | -0.068
AGGTTCAA | -0.0399
CCTAAGCA | -0.163
TCTCACCA | -0.082
AAAAAGGT | -0.24
CCAATGGG | -0.0964
AGAGCTTC | -0.151
ATCACTTC | -0.158
CAACTATC | -0.124
GCCCGGAA | 0.0566
ATCTGTAC | -0.0238
AGACTGTC | -0.0707
ACAAATGT | -0.139
TCCATAAA | -0.202
GAATCCCC | -0.12
CACGTAGC | -0.00826
CCAGAGGC | -0.0431
ACAACTCA | -0.125
AGCGAGAC | 0.0793
GTTGCACA | -0.109

Block 2
Target: Interferon regulatory factor 7, full length, phosphomimetic (IRF7, Homo sapiens, UniProt Q92985, residues 1-503, S471D/S472D/S475D/S476D/S477D/S483D/S484D/S487D)
UniProt Q92985, sequence (whole entry, unmodified, looked up): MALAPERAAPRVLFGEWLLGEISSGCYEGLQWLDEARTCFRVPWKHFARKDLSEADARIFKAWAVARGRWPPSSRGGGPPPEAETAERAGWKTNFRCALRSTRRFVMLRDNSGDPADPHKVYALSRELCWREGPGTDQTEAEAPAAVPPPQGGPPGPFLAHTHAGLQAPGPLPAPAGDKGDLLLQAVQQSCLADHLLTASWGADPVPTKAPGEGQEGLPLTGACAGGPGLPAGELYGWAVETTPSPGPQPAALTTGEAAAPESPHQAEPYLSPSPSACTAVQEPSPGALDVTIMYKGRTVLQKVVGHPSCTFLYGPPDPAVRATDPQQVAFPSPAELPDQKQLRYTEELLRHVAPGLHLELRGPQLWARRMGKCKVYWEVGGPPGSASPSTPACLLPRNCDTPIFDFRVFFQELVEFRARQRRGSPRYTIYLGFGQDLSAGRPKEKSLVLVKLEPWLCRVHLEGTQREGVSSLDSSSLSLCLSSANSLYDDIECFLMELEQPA
Method: protein-binding microarray
Molecule type: double-stranded DNA, one strand shown
Matrix: in vitro
Concentration: 2200 nM top
Notes: 60-bp whole probe
Added: salmon DNA 0.4 mg/ml
Relative to: random background probes
Direction: higher = stronger binding
All sequences stand within: GCCTAGCAC … GTCTTGATTCGCTTGACGCTGCTG
Oligonucleotide | fitted relative affinity [z-score]
AAAGTCTTCACTCTGCTGAAGTGCTAG | 0.193
GACGGCCTGCTTTTCCTGACGTGCTAG | 0.477
TTAGATATCAGTTTCGATTGGTGCTAG | 8.28
TTAGGACTGGACTATCGTTTAGTGCTA | -0.157
TCACACATCTCACTCTAACTGTGCTAG | 1.45
GACGGTATCCTTTTCCTTACGTGCTAG | 1.63
CACGGTCTCCTTCTCCTGACGTGCTAG | 0.906
GACGAACTGTGTCTCGAGACGTGCTAG | 0.394
GATGGACTGCTACTGCTGACGTGCTAG | 0.0891
GACGGACTTGGGTATCGGGACGTGCTA | -0.962
TCAACTTCTCTTTTTGCACTGTGCTAG | 1.68
TCACTTTTCCATTTTGTACTGTGCTAG | 4.73
TAAATTCTGAAAATGGAAACGTGCTAG | -0.557
TGTTATTAAAATTTAATGGGGTGCTAG | -0.485
AGCAGGGCTGATGCTCCCCTGTGCTAG | -1.22
TTAGGGCTGCTTCTCCTTTAGTGCTAG | -0.108
TTAGATTTCAGACTGGATAAGTGCTAG | -0.0543
GACGAACTGGGGAGTGGAGACGTGCTA | -0.397

Block 3
Target: Prothrombin, mature alpha-thrombin (F2, Homo sapiens, UniProt P00734)
Method: aptamer microarray, sandwich
Molecule type: DNA with 2'F-ANA
Matrix: in vitro
Concentration: 200 nM
Notes: whole 15-mer aptamer, many near background
Added: Cy3 exosite-II aptamer, 400 nM
Direction: higher = stronger binding
Oligonucleotide: GGTTGGTGTGGTTGG
Modification | mean fluorescence intensity
2'F-ANA at 1 2 3 5 6 10 11 12 13 15 | 80 a.u.
2'F-ANA at 1 5 11 13 14 15 | 43.1 a.u.
2'F-ANA at 1 2 3 4 6 7 10 11 14 | 47.3 a.u.
2'F-ANA at 1 2 5 7 9 11 12 13 14 | 50.1 a.u.
2'F-ANA at 1 2 3 4 5 6 8 10 11 12 15 | 55.2 a.u.
2'F-ANA at 1 5 9 10 11 12 14 15 | 46.9 a.u.
2'F-ANA at 1 3 6 7 10 11 14 15 | 58.1 a.u.
2'F-ANA at 1 4 5 7 8 9 10 12 15 | 49.7 a.u.
2'F-ANA at 3 9 10 12 13 14 15 | 375 a.u.
2'F-ANA at 5 6 7 8 9 10 11 15 | 55.9 a.u.
2'F-ANA at 1 4 5 7 8 9 10 11 12 14 15 | 51.9 a.u.
2'F-ANA at 2 5 6 8 11 12 13 14 | 48.2 a.u.
2'F-ANA at 4 5 9 10 11 | 123 a.u.
2'F-ANA at 1 2 5 6 9 11 14 15 | 49.8 a.u.
2'F-ANA at 2 3 4 7 9 10 15 | 323 a.u.
2'F-ANA at 1 2 5 7 9 10 12 13 | 61.8 a.u.
2'F-ANA at 1 4 6 9 10 12 14 15 | 70.3 a.u.
2'F-ANA at 2 4 6 9 10 11 14 | 58.5 a.u.
2'F-ANA at 1 2 4 5 7 8 9 10 15 | 80.1 a.u.
2'F-ANA at 2 3 9 10 11 15 | 458 a.u.
2'F-ANA at 3 8 9 10 11 14 | 416 a.u.
2'F-ANA at 1 3 4 5 7 8 11 12 13 | 75.9 a.u.
2'F-ANA at 1 5 6 9 10 11 14 15 | 45.9 a.u.
2'F-ANA at 1 2 6 9 12 15 | 292 a.u.

Block 4
Target: Ras GTPase-activating protein-binding protein 1, RRM domain (G3BP1, Homo sapiens, UniProt Q13283)
UniProt Q13283, sequence (whole entry, looked up): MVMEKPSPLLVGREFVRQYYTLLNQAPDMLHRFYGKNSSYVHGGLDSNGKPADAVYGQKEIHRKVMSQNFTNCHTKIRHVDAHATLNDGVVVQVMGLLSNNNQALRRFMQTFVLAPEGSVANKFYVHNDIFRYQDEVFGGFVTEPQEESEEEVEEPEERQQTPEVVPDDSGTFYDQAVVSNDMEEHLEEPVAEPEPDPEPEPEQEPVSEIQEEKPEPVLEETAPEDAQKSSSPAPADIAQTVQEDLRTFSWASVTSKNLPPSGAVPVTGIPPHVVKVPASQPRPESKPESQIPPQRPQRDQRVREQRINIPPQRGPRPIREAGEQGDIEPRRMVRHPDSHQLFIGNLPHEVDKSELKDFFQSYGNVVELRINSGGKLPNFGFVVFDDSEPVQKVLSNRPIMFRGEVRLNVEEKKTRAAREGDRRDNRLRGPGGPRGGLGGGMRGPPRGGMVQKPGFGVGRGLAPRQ
Method: RNA Bind-n-Seq
Molecule type: RNA
Matrix: in vitro
Concentration: 1 µM
Notes: whole 134-nt RNA, ends assumed
Added: 150 mM KCl
Relative to: input library
Direction: higher = stronger binding
All sequences stand within: GGGAGUUCUACAGUCCGACGAUC … UGGAAUUCUCGGGUGUCAAGG
Oligonucleotide | log2 enrichment
UCCUGUGCUACACAUCGUAUGUACCGAAUCAAAUUUUUUUAAAUUUAAAUUUUUUUAAAAAAGUAUUAUGUUACGCCGUUCGGAUCUGCA | -0.023
AGUCCUGUGCUACACAUCGUAUGUACCGAAUCGGGAGGGAAAAAGGGAAAAAAAGGGAAAGUAUUAUGUUACGCCGUUCGGAUCUGCACU | 0.454
CUGUGCUACACAUCGUAUGUACCGAAUCAAACCCCCCCAAAUUUUUUUAAAUUUUUUUAAAAAAGUAUUAUGUUACGCCGUUCGGAUCUG | -0.527
GUCCUGUGCUACACAUCGUAUGUACCGAAUCAAACCCCCCCAAACCCCCAAACCCAAAAAAGUAUUAUGUUACGCCGUUCGGAUCUGCAC | -0.154
UCCUCAAGUCCUGUGCUACACAUCGUAUGUACCGAAUCGGUGGUGGGUGGGGAAAGUAUUAUGUUACGCCGUUCGGAUCUGCACUUCCAG | -0.0608
AAGUCCUGUGCUACACAUCGUAUGUACCGAAUCGGGAAAAGGAAAAGGGGAAAAGGGAAAGUAUUAUGUUACGCCGUUCGGAUCUGCACU | 0.00589
CACAGACAACACGCACCCACACAGACACAGAGAGAAGGGGUUGGGAUGGGGACAGGGUGCACAGCAGGGCGGGGUAGGACCCCAGCCCCU | 0.0402
GGUAAACGCCCUGCAGAAGAUAUGGAAGAGGAACAAGCAUUUAAAAGAUCUAGAAACACUGAUGAGAUGGUUGAAUUACGCAUUCUGCUU | 0.0265
CCUGUGCUACACAUCGUAUGUACCGAAUCGGGAAAAAAAGGGAAAAAAAGGAAAAAAAGGGAAAGUAUUAUGUUACGCCGUUCGGAUCUG | -0.0106
AGUCCUGUGCUACACAUCGUAUGUACCGAAUCGGGUUUGGGUUUGGGUUUUUUUGGGAAAGUAUUAUGUUACGCCGUUCGGAUCUGCACU | 0.375

For quick reference, copied from above (block 4):
Oligonucleotide | log2 enrichment
AGUCCUGUGCUACACAUCGUAUGUACCGAAUCGGGUUUGGGUUUGGGUUUUUUUGGGAAAGUAUUAUGUUACGCCGUUCGGAUCUGCACU | 0.375
CUGUGCUACACAUCGUAUGUACCGAAUCAAACCCCCCCAAAUUUUUUUAAAUUUUUUUAAAAAAGUAUUAUGUUACGCCGUUCGGAUCUG | -0.527
CACAGACAACACGCACCCACACAGACACAGAGAGAAGGGGUUGGGAUGGGGACAGGGUGCACAGCAGGGCGGGGUAGGACCCCAGCCCCU | 0.0402
UCCUGUGCUACACAUCGUAUGUACCGAAUCAAAUUUUUUUAAAUUUAAAUUUUUUUAAAAAAGUAUUAUGUUACGCCGUUCGGAUCUGCA | -0.023
